Experimental data collected from several papers.
Each numbered part is a random draw from the data of one study; scales do not carry over between parts. Positions count from the first letter of the parent shown.

Set 1 — technique: RNAcompete; molecule type: RNA; medium: in vitro; concentration: 20 nM; notes: 7-mer, probes averaged, single round; reference: mean of 7-mers; reading: higher = stronger binding
Target: PABPC1L2, full length, GST fusion (mouse, UniProt A0ABA7IW68)
Construct (chain): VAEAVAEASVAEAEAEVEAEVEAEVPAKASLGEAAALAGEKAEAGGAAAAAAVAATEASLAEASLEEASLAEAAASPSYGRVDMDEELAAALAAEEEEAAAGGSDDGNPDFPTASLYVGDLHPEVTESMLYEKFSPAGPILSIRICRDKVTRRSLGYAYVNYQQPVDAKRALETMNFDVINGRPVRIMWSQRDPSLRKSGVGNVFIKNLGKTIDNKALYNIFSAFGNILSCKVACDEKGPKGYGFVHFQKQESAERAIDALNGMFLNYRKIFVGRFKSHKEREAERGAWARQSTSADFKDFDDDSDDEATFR
Oligonucleotide | 7-mer Z-score
UGGUAAC | -0.108
CAGCUAC | -0.206
UAUGAUU | -0.141
GCUACUG | -0.28
CAGUGGC | -0.0627
UGGCAAG | 0.00254
GCUAUGA | -0.0863
GGGGGAC | 0.503

Set 2 — technique: protein-binding microarray; molecule type: hairpin DNA; medium: in vitro; concentration: not given; reference: not given; reading: higher = stronger binding; shared flanks, not repeated: GAGGCCG … CGGCCTCACACTC
Target: Krueppel-like factor 3, full length (KLF3, Homo sapiens, UniProt P57682, residues 1-345)
Sequence of UniProt P57682 (whole entry, looked up): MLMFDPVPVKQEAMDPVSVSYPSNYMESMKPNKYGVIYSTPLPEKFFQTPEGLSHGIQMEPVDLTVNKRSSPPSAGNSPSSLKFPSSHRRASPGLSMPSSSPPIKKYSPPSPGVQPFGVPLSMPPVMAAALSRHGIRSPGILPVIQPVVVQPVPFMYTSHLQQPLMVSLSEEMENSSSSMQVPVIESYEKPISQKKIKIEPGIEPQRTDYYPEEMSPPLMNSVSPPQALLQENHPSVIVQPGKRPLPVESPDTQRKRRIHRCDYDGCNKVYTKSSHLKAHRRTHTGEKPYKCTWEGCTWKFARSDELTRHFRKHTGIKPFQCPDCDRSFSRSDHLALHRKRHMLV
Notes: whole hairpin DNA, median over replicate spots
Oligonucleotide | median fluorescence [a.u.]
ACCGAGCCCAGCCTCCTGGCTGGGCTCGGT | 8020
ACCCGGCCCAGCCTCCTGGCTGGGCCGGGT (5mC at 11) | 8160
TCCGCGCCCAGCCTCCTGGCTGGGCGCGGA | 8440
ACCACGGCCAGCCTCCTGGCTGGCCGTGGT (5mC at 31) | 8520
ACCCGGCCCAGCCTCCTGGCTGGGCCGGGT (5mC at 11 33) | 7870
ACCCGGCCCAGCCTCCTGGCTGGGCCGGGT | 8300
ACGGCGCCCAGCCTCCTGGCTGGGCGCCGT (5mC at 35) | 8390
ACCGCGCCCAGCCTCCTGGCTGGGCGCGGT (5mC at 15) | 8620

Single results of other studies
P1: viral docking peptide; CKVKRKLFGSENI; partner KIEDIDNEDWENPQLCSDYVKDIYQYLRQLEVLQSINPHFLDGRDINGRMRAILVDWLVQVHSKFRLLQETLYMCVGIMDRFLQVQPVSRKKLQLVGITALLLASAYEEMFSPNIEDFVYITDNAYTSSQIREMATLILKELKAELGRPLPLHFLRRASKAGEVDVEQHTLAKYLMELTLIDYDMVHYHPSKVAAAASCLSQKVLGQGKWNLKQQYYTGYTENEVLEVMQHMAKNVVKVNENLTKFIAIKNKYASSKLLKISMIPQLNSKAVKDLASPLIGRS
Substance | tested on | test | test system | setting | how to read | endpoint | result
JUP (Homo sapiens, UniProt P14923) | DSP (Homo sapiens, UniProt P15924) | cross-linking MS | cells | added: BSPNO | – | cross-linked residues | K487 to K94
P1 C1A | CCNB2, cyclin fold, Cln2 fusion (human) | yeast growth competition, sequencing | yeast | weak parent motif | reference: not given, higher = stronger binding | normalised enrichment score | 1.12

Repeated from above (set 2):
Oligonucleotide | median fluorescence [a.u.]
ACCGCGCCCAGCCTCCTGGCTGGGCGCGGT (5mC at 15) | 8620
ACCCGGCCCAGCCTCCTGGCTGGGCCGGGT (5mC at 11) | 8160
